Measurements of several laboratories.
Each numbered part is a random draw from the data of one study; scales do not carry over between parts. Positions count from the first letter of the parent shown.

Study 1
Target: Sal-like protein 4, full length isoform B (SALL4, Homo sapiens, UniProt Q9UJQ4-2, residues 1-616)
Method: universal PBM
Form: double-stranded DNA, one strand shown
Sample: in vitro
Concentration: not given
Notes: 8-mer, flanks averaged, mean of replicates
Direction: higher = stronger binding
Residues (chain): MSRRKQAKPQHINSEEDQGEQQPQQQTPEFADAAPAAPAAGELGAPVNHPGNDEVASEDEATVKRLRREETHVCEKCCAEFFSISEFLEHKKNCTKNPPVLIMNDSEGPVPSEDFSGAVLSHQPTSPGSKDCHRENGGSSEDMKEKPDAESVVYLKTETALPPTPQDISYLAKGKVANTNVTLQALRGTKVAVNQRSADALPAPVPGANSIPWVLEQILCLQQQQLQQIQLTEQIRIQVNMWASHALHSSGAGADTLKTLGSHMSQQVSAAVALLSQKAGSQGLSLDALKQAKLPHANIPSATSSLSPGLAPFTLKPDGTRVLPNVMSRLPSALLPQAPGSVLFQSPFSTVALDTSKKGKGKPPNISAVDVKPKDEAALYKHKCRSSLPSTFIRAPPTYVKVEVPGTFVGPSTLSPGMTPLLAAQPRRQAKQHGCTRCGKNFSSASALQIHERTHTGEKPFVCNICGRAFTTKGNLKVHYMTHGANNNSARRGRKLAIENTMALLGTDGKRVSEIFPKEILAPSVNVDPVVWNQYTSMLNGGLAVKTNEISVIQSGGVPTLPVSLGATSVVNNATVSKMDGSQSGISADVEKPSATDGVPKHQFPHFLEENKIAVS
`AGGAAGTA` gave an E-score of 0.0192.
With `AGGGCGGC` the E-score was -0.333.
The E-score of `CTAAAAGA` is reported as 0.0949.
`CCCCTCGA` gave an E-score of -0.168.
With `GCATAAGA` the E-score was 0.101.
The E-score of `TTCTAAAA` is reported as 0.281.
`GGACCAAA` gave an E-score of -0.152.
With `CGAACGCC` the E-score was -0.269.

Study 2
Target: CCNB1, cyclin fold, Cln2 fusion (human)
Method: yeast growth competition, sequencing
Sample: yeast
Notes: strong parent motif
Baseline: not given
Direction: higher = stronger binding
Parent: viral docking peptide; KGVKRKLFAEDSS; partner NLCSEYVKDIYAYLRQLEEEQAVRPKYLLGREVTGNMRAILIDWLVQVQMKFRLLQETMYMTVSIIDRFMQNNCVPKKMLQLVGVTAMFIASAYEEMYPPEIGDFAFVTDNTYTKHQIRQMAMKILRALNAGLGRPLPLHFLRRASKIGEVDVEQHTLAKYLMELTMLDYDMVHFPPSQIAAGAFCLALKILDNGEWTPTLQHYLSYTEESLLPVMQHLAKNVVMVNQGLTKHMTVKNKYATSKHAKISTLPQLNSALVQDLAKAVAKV
Under “normalised enrichment score”, `KGYKRKLFAEDSS [V3Y]` is recorded as 0.591.
`KFVKRKLFAEDSS [G2F]`: “normalised enrichment score” 1.47.
`KGVKRKLFAEDES [S12E]` — result for “normalised enrichment score”: 3.59.
Under “normalised enrichment score”, `KGVKRKLWAEDSS [F8W]` is recorded as 0.301.
Under “normalised enrichment score”, `KGVKKKLFAEDSS [R5K]` is recorded as 2.

Study 3
Target: UBE2A UBC core domain (UniProt P49459)
UniProt P49459, sequence (whole entry, looked up): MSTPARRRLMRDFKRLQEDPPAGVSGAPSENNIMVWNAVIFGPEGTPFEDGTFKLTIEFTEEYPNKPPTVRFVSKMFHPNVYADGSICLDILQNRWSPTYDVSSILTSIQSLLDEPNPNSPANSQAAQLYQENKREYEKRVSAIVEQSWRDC
Method: yeast two-hybrid
Sample: yeast
Notes: mostly zero background
Baseline: not given
Direction: higher = stronger interaction
B1: TRIM74 RING domain (UniProt Q86UV6); chain SLLELEDWLQCPICLEVFKESLMLQCGHSYCKGCLVSLSYHLDTKVRCPMCWQVVDGSSSLP
B2: TRIM34 RING domain (UniProt Q9BYJ4); chain ILLNVQEEVTCPICLELLTEPLSLDCGHSLCRACITVSNKEAVTSMGGKSSCPVCGISYSFEHLQA
B3: RNF130 RING domain (UniProt Q86XS8); chain DKETDPDFDHCAVCIESYKQNDVVRILPCKHVFHKSCVDPWLSEHCTCPMCKLNILKALGIV
B4: CBLL1 RING domain (UniProt Q75N03); chain GEKDDTPVHFCDKCGLPIKIYGRMIPCKHVFCYDCAILHEKKGDKMCPGCSDPVQRIEQCT
B5: RNF7 RING domain (UniProt Q9UBF6); chain AICRVQVMDACLRCQAENKQEDCVVVWGECNHSFHNCCMSLWVKQNNRCPLCQQDWVVQRIGK
For `B1 (TRIM74 RING domain)`, “lacZ reporter activity” read 0.
Under “lacZ reporter activity”, `B2 (TRIM34 RING domain)` is recorded as 0.
Under “lacZ reporter activity”, `SNNDLASLFECPVCFDYVLPPILQCQSGHLVCSNCRPKLTCCPTCRGPLGSIRNLA (SIAH1 RING domain (UniProt Q8IUQ4))` is recorded as 0.
`B3 (RNF130 RING domain)`: “lacZ reporter activity” 0.
`B4 (CBLL1 RING domain)` — result for “lacZ reporter activity”: 0.
Under “lacZ reporter activity”, `EIKDYKARLTCPCCNMRKKDAVLTKCFHVFCFECVKTRYDTRQRKCPKCNAAFGANDFHR (RNF20 RING domain (UniProt Q5VTR2))` is recorded as 0.
For `AAQLLEEKLTCAICLGLYQDPVTLPCGHNFCGACIRDWWDRCGKACPECREPFPDGAELR (TRIM65 RING domain (UniProt Q6PJ69))`, “lacZ reporter activity” read 0.
`B5 (RNF7 RING domain)` — result for “lacZ reporter activity”: 0.

Other studies, line by line
Target: HLA class I histocompatibility antigen, A alpha chain, allele A*25:01 (Homo sapiens, UniProt P04439)
Observed: peptide-MHC binding
Form: peptide
Concentration: concentration not given
Under binding, `ERYPGGVSL` is recorded as “inactive”.
Under binding, `NSESGNSRY` is recorded as “inactive”.
